Results pooled from the literature.
Lines come from different studies, so protocols differ. ± gives the spread as reported.

The quantum yield of `NCCCC(=O)OCC(=O)c1ccc(O)c(OC(F)(F)F)c1.O=C(O)C(F)(F)F` is reported as 0.02 (photolysis, measured: GABA appearance; aqueous HEPES buffer with LiClO4; pH 8.2).
For `N=C(N)NCCC[C@@H]1NC(=O)[C@H](Cc2c[nH]c3ccccc23)NC(=O)[C@@H](CC2CCCCC2)NC(=O)[C@@H]2CCCN2C(=O)[C@@H](NC(=O)CCc2ccccc2)CCCNC1=O`, “distribution rate constant k12” read less than 0.001 h⁻¹ (C57BL/6J mice, plasma; subcutaneous, 1 mg/kg, two-compartment model).
Under “urinary excretion 0-24 h”, `COc1cc(C)c(Cc2ccc(O)cc2)cc1[C@@H]1S[C@H](CO)[C@@H](O)[C@H](O)[C@H]1O` is recorded as 10.4 ± 1.65% (Japanese T2DM patients, urine; 0.5 mg luseogliflozin, day 7, once daily; relative to: dose).
`Cc1ccccc1/N=N/c1ccc(/N=N/c2c(O)ccc3ccccc23)c(C)c1` gave a stability deviation of -5.5% (rat whole blood extract; 0.2 µg/L, 30 days, -20 °C, long-term storage).
For `CC(C)[C@H](NC(=O)[C@@H]1CCCN1C(=O)[C@H](CCCNC(=N)N)NC(=O)[C@H](CS)NC(=O)[C@H](Cc1c[nH]c2ccccc12)NC(=O)[C@H](CCCNC(=N)N)NC(=O)[C@@H](Cc1ccccc1)NC(=O)[C@H](Cc1c[nH]cn1)NC(=O)[C@H](CCC(=O)O)NC(=O)[C@H](CS)NC(=O)[C@H](CS)NC(=O)CNC(=O)[C@@H]1CC(=O)N[C@@H](CCCNC(=N)N)C(=O)NCC(=O)N[C@@H](CC(=O)O)C(=O)N[C@H](Cc2ccc(O)cc2)C(=O)N1)C(N)=O` [technetium-99m labelled], the tissue uptake was 0.89 ± 0.04 %ID/g (C57 mouse, female, B16/F1 melanoma, spleen; intravenous, 0.037 MBq, 24 h).
`O=C([O-])CN1CCN(CC(=O)[O-])CCN(CC(=O)NC[C@H]2CC[C@H](C(=O)N[C@H](Cc3cnc4ccccc4c3)C(=O)NCCCC[C@H](NC(=O)N[C@@H](CCC(=O)O)C(=O)O)C(=O)O)CC2)CCN(CC(=O)[O-])CC1.[64Cu+2]` has an absorbed dose of 0.0987 mGy/MBq (PET/CT dosimetry OLINDA/EXM; healthy volunteers, liver; up to 24 h post-injection).
`COC(=O)C(c1ccccc1Cl)N1CCC(SCC(=O)c2cccc(OC)c2)C(=CC(=O)O)C1` (mixture of isomers): “deviation from nominal” 2% (HPLC-MS/MS; feline EDTA plasma; 100 ng/mL, 12 h, -80 °C, storage stability).
For `Cc1cccc(C)c1OCC(N)c1ccccc1` (stereo not drawn), the metabolic rate was 0.1 ± 0.01 nmol/min/mg of protein (human liver S9; 88 µM, 30 min, 37 °C).
The brightness of `Nc1ncnc2c1nc(-n1nnc3c1CCC1C(CO)C1CC3)n2C1CC(O)C(CO)O1` (mixture of isomers) is reported as 0.25 M⁻¹ cm⁻¹ (methanol).
Under “conjunctival redness score”, `NC[C@@H](C(=O)Nc1ccc(-c2cn[nH]c2)cc1)c1ccccc1` is recorded as 1 (OECD 405 eye irritation; New Zealand White rabbit, eye; topical, 0.1%, 97 h (day 5), scale 0 to 3; direction not given).
With `COc1ccc(/C=C/c2ccc(-c3ccc(C)cn3)nc2)cc1` the fluorescence lifetime was 0.91 ns (TCSPC; hexanes).
With `CCc1cc(Nc2nc(-c3ccc(-n4cnc(C)c4)c(F)c3)cs2)c(C)cc1C` the terminal half-life was 6.4 h (human, both sexes, plasma; oral, 200 mg, day 1, multiple dose, geometric mean).
`CCCC1OC2CC3C4CCC5=CC(=O)C=CC5(C)C4C(O)CC3(C)C2(C(=O)COC(=O)CN(CC)CC)O1` (stereo not drawn): “time to near-complete hydrolysis” no more than 24 h (concentration not given, pH 7.4, 37 °C).
`CCOC(=O)c1[nH]c(C)c(/C=C/c2c(I)c(C)c3n2[B-](F)(F)[N+]2=C(C)C(I)=C(C)C2=C3c2cc(OC)cc(OC)c2)c1C` gave an emission maximum of 632 nm (THF).
Under “time to fragment appearance”, `C[C@H](NC(=O)[C@H](Cc1cnc[nH]1)NC(=O)[C@H](CO)NC(=O)[C@@H](N)CC(=O)O)C(=O)N[C@@H](CCCCN)C(=O)N[C@@H](CCCNC(=N)N)C(=O)N[C@@H](Cc1cnc[nH]1)C(=O)N[C@@H](Cc1cnc[nH]1)C(=O)NCC(=O)N[C@@H](Cc1ccc(O)cc1)C(=O)N[C@@H](CCCCN)C(=O)N[C@@H](CCCNC(=N)N)C(=O)N[C@@H](CCCCN)C(=O)N[C@@H](Cc1ccccc1)C(=O)N[C@@H](Cc1cnc[nH]1)C(=O)N[C@@H](CCC(=O)O)C(=O)N[C@@H](CCCCN)C(=O)N[C@@H](Cc1cnc[nH]1)C(=O)N[C@@H](Cc1cnc[nH]1)C(=O)N[C@@H](CO)C(=O)N[C@@H](Cc1cnc[nH]1)C(=O)N[C@@H](CCCNC(=N)N)C(=O)NCC(=O)N[C@@H](Cc1ccc(O)cc1)C(=O)O` is recorded as 0.5 h (cationic PAGE; pooled whole saliva supernatant G1, diluted 1:10; 100 µg/mL, 37 °C).
For `C[C@H]1C[C@@H](Oc2cccc(F)n2)CCN1Cc1cnc(N[11C](C)=O)s1`, “plasma free fraction” read 8.38 ± 0.17% (ultrafiltration; rhesus monkey, plasma; pre-blocked condition).
Under “volume of distribution”, `COC(=O)c1ccc(-c2cn(Cc3cc(Cl)ccc3O[11CH3])nn2)cc1` is recorded as 0.827 mL/cm³ (PET, Logan plot; rhesus monkey, cerebellum; dose not given, 40 min).
The ruthenium level of `Cc1ccc(C(C)C)cc1.O=C(N=P(c1ccccc1)(c1ccccc1)c1ccccc1)c1ccccn1.[Cl-].[Cl-].[Ru+2]` is reported as less than 5 µg/g (NOD scid mice, liver; dose not given, end of efficacy study).
`Cc1[nH]c(/C=C2\C(=O)Nc3ccc(F)cc32)c(C)c1NC(=O)CCN1CCN(C)CC1` has an accuracy deviation of -5.62% (dog plasma; 80 ng/mL nominal, three freeze-thaw cycles at -20 °C).
`C=C(C)C(=O)Nc1ccc(-c2c(-c3ccc(Oc4nccc(C)n4)cc3)c3c(N)ncnc3n2C)cc1` has a hepatocyte CLint of 3.4 µL/min/10⁶ cells (metabolic stability; cynomolgus monkey, hepatocytes).
For `NCCCC(=O)OCC(=O)c1ccc(O)c(F)c1F.O=C(O)C(F)(F)F`, the quantum yield was 0.24 (photolysis, measured: disappearance of compound; unbuffered water).
`C#CCOc1ccc(/C=C2\SC(=O)N(CC(=O)NCc3ccccc3)C2=O)cc1` gave a correlation volume of 4950 cm³/mol (inverse Kirkwood-Buff integrals; binary solvent mixture; concentration not given, 298.15 K, mole fraction x1 0.70).
`COc1ccc2cc(-c3ccc(-c4ccc(C)cn4)nc3)oc2c1`: “radiative decay rate constant” 0.58 ns⁻¹ (TCSPC; benzene).
With `O=c1nc(NO)ccn1[C@@H]1O[C@H](CO)[C@@H](O)[C@H]1O` the protein level was less than 0.5 fold (western blot, measured: CYP2E1; rats, CFA-induced arthritis, liver; oral, 80 mg/kg twice daily, 5 days; relative to: untreated arthritic rats).
`[11CH3]c1ccc2nc(C3CCC3)n(-c3ccc4[nH]ncc4c3)c2n1` gave an absorbed dose of 3.2 µSv/MBq (extrapolated from mouse biodistribution; standard human, total body).
For `COc1cc(NC(C)=O)c2c(c1O)-c1c(OC)c(OC)cc3c1C(C2)N(C)CC3` (stereo not drawn), the remaining compound was 102 ± 4.1% (rat, plasma; 50 µg/mL, 4 h, room temperature, short-term storage).
`Cn1c(=O)oc2ccc(-c3ccc(CC(C#N)NC(=O)C4CNCCCO4)c(F)c3)cc21` (stereo not drawn) — result for “treatment-emergent adverse event incidence”: 3.7% (measured: blood fibrinogen decreased; human volunteers; oral, dose not given).
With `CC(C)(O)c1ncc([S@](N)(=O)=NC(=O)Nc2c3c(cc4c2CCC4)CCC3)s1` the AUC(0-tau) was 24800 ng·h/mL (healthy human; oral, 30 mg once daily, day 1, capsule formulation, geometric mean).
The Cmax ratio of `CCCC(CCC(=O)O)NC(=O)c1ccc2c(c1)OCO2` (stereo not drawn) is reported as 3.48 (female Sprague-Dawley rats, plasma; oral, 200 mg/kg of parent drug; relative to: 200 over 20 mg/kg dose).
`CCN(CC)C(=O)c1ccc(-c2cc(NCCCN3CCCCC3)c3ccccc3n2)cc1` gave a serum concentration of roughly 680 nM (C57BL/6 mice, male, serum; oral, 0.03% w/w in chow, 5 days).
`[123I]c1ccc2nc(-c3ccc(-n4ccnn4)nc3)cn2c1` has a tracer uptake of 0.788 %ID/g (male Wistar rat, brain; intravenous, 4 MBq, 5 min).
`NCCCC(=O)OCC(=O)c1cc(F)c(O)cc1F.O=C(O)C(F)(F)F` gave a quantum yield of 0.2 (photolysis, measured: rearranged acid appearance; unbuffered water).
`Oc1cccc(-c2cccc(O)n2)n1.[Cl-].[Cl-].[Ru+2].c1cnc2c(c1)ccc1cccnc12.c1cnc2c(c1)ccc1cccnc12` gave a logD of 0.68 (shake flask; octanol/acetate buffer; pH 5.00).
`O=C(NCCCN(CCCCN(CCCNC(=O)c1cccc(=O)n1[O-])C(=O)c1cccc(=O)n1[O-])C(=O)c1cccc(=O)n1[O-])c1cccc(=O)n1[O-].[89Zr+4]` gave an intact complex of 97.4 ± 0.1% (radio-TLC; PBS; 7 d, pH 7.4, 37 °C, added: Ni^2+ 10-fold excess).
For `CCOc1c(C(C)(C)O)sc2cnc(Nc3ccc(N4CCC(N5CC6(COC6)C5)CC4)cc3OC)nc12`, the APD50 change was -12 ± 5% (New Zealand rabbit, male, isolated Purkinje fibres; 30 µM, 45 min, pacing 3 Hz).
With `Cc1ccc(OCC(=O)O)cc1` the AUC(0-last) ratio was 949 (Sprague-Dawley rat, male, plasma; oral gavage, 100 mg/kg of parent drug; relative to: compound over parent drug).
For `NC12CNCCNCC(NCc3ccc(CNC(=O)CCCC(=O)NCc4ccc(-c5nncnn5)cc4)cc3)(CNCCNC1)CNCCNC2.[64Cu+2]`, the absorbed dose was 0.0385 rad/mCi (OLINDA dosimetry; stomach wall; pretargeting, 48 h interval).
The AUC(0-tlast) of `CC(C)C[C@@H](NC(=O)[C@H](NC(=O)[C@H]1CCCN1)[C@H](C)O)C(=O)N[C@H](Cc1c[nH]cn1)C(=O)N[C@@H](C(=O)N[C@H](Cc1c[nH]cn1)C(=O)N[C@H](CC(N)=O)C(=O)N[C@H](CCCNC(=N)N)C(=O)N[C@H](CCCNC(=N)N)C(=O)N[C@H](CCCNC(=N)N)C(=O)N[C@H](CCCNC(=N)N)C(=O)N[C@H](CCCNC(=N)N)C(N)=O)[C@H](C)O` is reported as 180 ± 77 ng·h/mL (Beagle dog, CSF; oral, 20 mg/kg).
`C[C@H](NC(=O)COC(=O)[C@H](C)NC(=O)CO)C(=O)O` has a depolymerization half-life of 62.6 h (water; pH 4, 37 °C).
`Cc1cc(O)cc(O)c1C(=O)c1c2c3c(c(O)cc(C)c3oc1=O)C(=O)c1c(O)cc(O)cc1-2` gave a PCE/NCE ratio of 1.01 ± 0.05 (mouse, bone marrow; intraperitoneal, 100 mg/kg, 30 h).
`CC(C)c1cnc(-c2cc(Cl)ccc2F)cc1Nc1ccncc1C(=O)NC(CO)CO` — result for “patients with anaemia”: 0% (patients, phase I monotherapy; oral, dose not given, grade 5).
The effective half-life of `CC[C@H](C)[C@H](NC(=O)[C@H](CC(C)C)NC(=O)[C@H](Cc1c[nH]c2ccccc12)NC(=O)[C@H](C)NC(=O)[C@@H](NC(=O)[C@H](Cc1ccccc1)NC(=O)[C@H](CC(=O)O)NC(=O)[C@H](CCCNC(=N)N)NC(=O)[C@H](C)NC(=O)[C@H](C)NC(=O)[C@H](CC(C)C)NC(=O)[C@H](C)NC(=O)[C@H](CC(=O)O)NC(=O)[C@H](CC(C)C)NC(=O)[C@@H](NC(=O)[C@@H](NC(=O)[C@H](C)NC(=O)[C@H](CC(C)C)NC(=O)[C@H](CCC(=O)O)NC(=O)[C@H](CO)NC(=O)[C@H](CO)NC(=O)[C@H](Cc1ccccc1)NC(=O)[C@@H](NC(=O)CNC(=O)[C@H](CCC(=O)O)NC(=O)CNC(=O)[C@@H](N)Cc1cnc[nH]1)[C@@H](C)O)[C@@H](C)O)[C@@H](C)CC)[C@@H](C)CC)C(=O)N[C@@H](C)C(=O)N[C@H](C(=O)N[C@@H](CCCCN)C(=O)N[C@H](C(=O)N[C@H](C(=O)N[C@@H](CC(=O)O)C(=O)N[C@@H](CCCCN)C(=O)N[C@@H](CCCCN)C(=O)N[C@@H](CCCCN)C(=O)N[C@@H](CCCCN)C(=O)N[C@@H](CCCCN)C(=O)N[C@@H](CCCCN)C(N)=O)[C@@H](C)O)[C@@H](C)CC)[C@@H](C)O` is reported as 88.3 h (healthy humans, plasma; subcutaneous, 10 mg once weekly).

Some of these lines once more:
The Cmax ratio of `CCCC(CCC(=O)O)NC(=O)c1ccc2c(c1)OCO2` (stereo not drawn) is reported as 3.48 (female Sprague-Dawley rats, plasma; oral, 200 mg/kg of parent drug; relative to: 200 over 20 mg/kg dose).
Under “time to fragment appearance”, `C[C@H](NC(=O)[C@H](Cc1cnc[nH]1)NC(=O)[C@H](CO)NC(=O)[C@@H](N)CC(=O)O)C(=O)N[C@@H](CCCCN)C(=O)N[C@@H](CCCNC(=N)N)C(=O)N[C@@H](Cc1cnc[nH]1)C(=O)N[C@@H](Cc1cnc[nH]1)C(=O)NCC(=O)N[C@@H](Cc1ccc(O)cc1)C(=O)N[C@@H](CCCCN)C(=O)N[C@@H](CCCNC(=N)N)C(=O)N[C@@H](CCCCN)C(=O)N[C@@H](Cc1ccccc1)C(=O)N[C@@H](Cc1cnc[nH]1)C(=O)N[C@@H](CCC(=O)O)C(=O)N[C@@H](CCCCN)C(=O)N[C@@H](Cc1cnc[nH]1)C(=O)N[C@@H](Cc1cnc[nH]1)C(=O)N[C@@H](CO)C(=O)N[C@@H](Cc1cnc[nH]1)C(=O)N[C@@H](CCCNC(=N)N)C(=O)NCC(=O)N[C@@H](Cc1ccc(O)cc1)C(=O)O` is recorded as 0.5 h (cationic PAGE; pooled whole saliva supernatant G1, diluted 1:10; 100 µg/mL, 37 °C).
With `CCc1cc(Nc2nc(-c3ccc(-n4cnc(C)c4)c(F)c3)cs2)c(C)cc1C` the terminal half-life was 6.4 h (human, both sexes, plasma; oral, 200 mg, day 1, multiple dose, geometric mean).
`[11CH3]c1ccc2nc(C3CCC3)n(-c3ccc4[nH]ncc4c3)c2n1` gave an absorbed dose of 3.2 µSv/MBq (extrapolated from mouse biodistribution; standard human, total body).
`Cc1[nH]c(/C=C2\C(=O)Nc3ccc(F)cc32)c(C)c1NC(=O)CCN1CCN(C)CC1` has an accuracy deviation of -5.62% (dog plasma; 80 ng/mL nominal, three freeze-thaw cycles at -20 °C).
